Assay results from different studies.
Each numbered part is a random draw from the data of one study; scales do not carry over between parts. Changes are numbered by the printed parent chain.
Chain of UniProt P41143 (whole entry, looked up): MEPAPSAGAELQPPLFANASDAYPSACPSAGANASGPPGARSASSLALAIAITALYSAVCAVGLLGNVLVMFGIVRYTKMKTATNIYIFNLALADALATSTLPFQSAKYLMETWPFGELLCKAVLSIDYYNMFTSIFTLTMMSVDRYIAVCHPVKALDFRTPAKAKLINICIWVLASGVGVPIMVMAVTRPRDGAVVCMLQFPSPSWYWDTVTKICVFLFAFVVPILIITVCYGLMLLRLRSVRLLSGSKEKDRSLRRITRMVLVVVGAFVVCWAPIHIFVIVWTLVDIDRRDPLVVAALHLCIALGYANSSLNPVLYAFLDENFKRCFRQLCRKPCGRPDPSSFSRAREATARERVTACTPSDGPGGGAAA

Block 1 — target: CCNA2, cyclin fold, Cln2 fusion (human); method: yeast growth competition, sequencing; sample: yeast; setting: strong parent motif; baseline: not given; direction: higher = stronger binding
Parent: viral docking peptide; YKVKRRLVFGADD; partner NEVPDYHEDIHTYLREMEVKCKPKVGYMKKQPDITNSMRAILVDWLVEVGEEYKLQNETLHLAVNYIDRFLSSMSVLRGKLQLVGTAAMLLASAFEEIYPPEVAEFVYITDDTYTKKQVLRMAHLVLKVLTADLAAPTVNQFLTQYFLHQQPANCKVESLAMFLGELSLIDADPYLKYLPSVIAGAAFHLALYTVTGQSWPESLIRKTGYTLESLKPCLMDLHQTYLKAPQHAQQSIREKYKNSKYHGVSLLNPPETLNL
For `YIVKRRLVFGADD [K2I]`, “normalised enrichment score” read 5.75.
Under “normalised enrichment score”, `YKVKRRKVFGADD [L7K]` is recorded as 0.462.
For `YKVKRRLVFEADD [G10E]`, “normalised enrichment score” read 6.24.
For `YKVKRRLVGGADD [F9G]`, “normalised enrichment score” read 0.643.
`YKVKPRLVFGADD [R5P]`: “normalised enrichment score” 0.255.
`YKVKRRLVFGAND [D12N]`: “normalised enrichment score” 6.47.
For `YKVKRRRVFGADD [L7R]`, “normalised enrichment score” read 0.545.
Under “normalised enrichment score”, `YHVKRRLVFGADD [K2H]` is recorded as 6.56.

Block 2 — target: vanadate, free oxyanion; method: microfluidic competitive inhibition; sample: in vitro, cell-free expressed; concentration: not given; direction: lower = stronger binding
Setting: derived from inhibition constants, unchanged parent 676 nM
Parent: PafA, mature enzyme, eGFP fusion (Elizabethkingia meningoseptica, UniProt Q9KJX5); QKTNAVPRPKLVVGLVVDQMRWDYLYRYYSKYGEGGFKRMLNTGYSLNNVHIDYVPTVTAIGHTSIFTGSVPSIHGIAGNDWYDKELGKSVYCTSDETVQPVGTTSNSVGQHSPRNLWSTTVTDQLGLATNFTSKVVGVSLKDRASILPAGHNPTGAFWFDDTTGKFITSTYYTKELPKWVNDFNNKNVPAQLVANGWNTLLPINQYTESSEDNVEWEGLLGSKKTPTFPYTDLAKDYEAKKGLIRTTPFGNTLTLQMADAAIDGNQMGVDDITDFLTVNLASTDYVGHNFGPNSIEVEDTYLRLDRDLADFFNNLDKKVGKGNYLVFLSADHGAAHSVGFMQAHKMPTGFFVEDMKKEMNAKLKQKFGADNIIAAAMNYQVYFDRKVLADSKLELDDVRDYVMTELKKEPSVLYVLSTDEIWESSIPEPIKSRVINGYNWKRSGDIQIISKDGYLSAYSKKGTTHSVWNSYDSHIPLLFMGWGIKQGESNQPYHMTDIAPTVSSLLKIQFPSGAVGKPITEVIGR
For `E218V`, “oxyanion analog dissociation constant” read 533 nM.
Under “oxyanion analog dissociation constant”, `K409V` is recorded as 645 nM.
For `S392G`, “oxyanion analog dissociation constant” read 680 nM.
`T105V` — result for “oxyanion analog dissociation constant”: 718 nM.
`S425V` — result for “oxyanion analog dissociation constant”: 585 nM.
For `P178V`, “oxyanion analog dissociation constant” read 623 nM.
`R21V`: “oxyanion analog dissociation constant” 912 nM.
`V327A`: “oxyanion analog dissociation constant” 643 nM.

Block 3 — observed: phage display binding; method: phage display panning NGS; molecule type: peptide; setting: panning round 3; baseline: OGT-panned over input library
Target: UDP-N-acetylglucosamine--peptide N-acetylglucosaminyltransferase 110 kDa subunit (OGT, Homo sapiens, UniProt O15294)
Chain of UniProt O15294 (whole entry, looked up): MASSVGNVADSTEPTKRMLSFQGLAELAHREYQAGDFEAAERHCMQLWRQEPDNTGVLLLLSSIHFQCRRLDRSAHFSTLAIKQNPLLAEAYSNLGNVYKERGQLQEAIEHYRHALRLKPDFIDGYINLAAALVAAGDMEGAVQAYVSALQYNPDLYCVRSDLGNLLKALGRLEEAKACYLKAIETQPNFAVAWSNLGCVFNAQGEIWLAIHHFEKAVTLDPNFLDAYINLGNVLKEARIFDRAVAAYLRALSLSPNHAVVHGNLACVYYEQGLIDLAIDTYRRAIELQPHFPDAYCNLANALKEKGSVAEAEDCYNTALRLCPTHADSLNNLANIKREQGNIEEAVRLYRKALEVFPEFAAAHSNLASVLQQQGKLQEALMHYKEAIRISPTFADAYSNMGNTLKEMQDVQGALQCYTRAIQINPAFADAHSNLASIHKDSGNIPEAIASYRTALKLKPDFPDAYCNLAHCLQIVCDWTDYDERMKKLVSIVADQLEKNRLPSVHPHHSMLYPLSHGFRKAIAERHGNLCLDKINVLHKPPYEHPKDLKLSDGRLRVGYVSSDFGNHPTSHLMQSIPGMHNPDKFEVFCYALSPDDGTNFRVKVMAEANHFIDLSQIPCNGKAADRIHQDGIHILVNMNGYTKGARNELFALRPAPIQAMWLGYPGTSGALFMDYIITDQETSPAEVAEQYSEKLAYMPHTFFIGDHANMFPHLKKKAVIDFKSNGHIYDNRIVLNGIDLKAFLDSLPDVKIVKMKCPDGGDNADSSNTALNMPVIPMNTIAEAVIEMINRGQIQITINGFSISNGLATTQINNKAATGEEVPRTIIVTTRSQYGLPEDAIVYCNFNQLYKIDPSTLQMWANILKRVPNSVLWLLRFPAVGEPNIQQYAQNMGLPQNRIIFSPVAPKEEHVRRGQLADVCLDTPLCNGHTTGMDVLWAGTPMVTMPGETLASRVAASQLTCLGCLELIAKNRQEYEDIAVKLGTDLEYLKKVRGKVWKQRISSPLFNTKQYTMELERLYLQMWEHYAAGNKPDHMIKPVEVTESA
`VEQSSPFAPQYQIQM` gave a fold enrichment of 5.13.
The fold enrichment of `NDMFAPKYQLTWREF` is reported as 4.61.
`YIERTSVMPQYQITY` has a fold enrichment of 2.75.
With `QQYFLPMYQIQFRNM` the fold enrichment was 3.92.
`GRFNPVYQMVWEKTV` has a fold enrichment of 3.75.
`MQEYSPGYQIQFSKP` has a fold enrichment of 2.53.
For `DDTGPFQPMYQIQII`, the fold enrichment was 4.56.
`STFGRYLPSYIIQYR` has a fold enrichment of 3.16.

Further values, each from its own experiment
With `CCCCN(CCCC)C(=O)CN1C[C@@H](c2cc(OC)c3c(c2)OCO3)[C@H](C(=O)O)[C@H]1CC(C)(C)CCC` the inhibition was 41.2% (OPRD1 (Homo sapiens, UniProt P41143); binding, radioligand binding; 10 µM).
The remaining binding of `Cc1c(NC(=O)c2cc(C(N)=O)nc3cc(F)ccc23)c(C(F)(F)F)nn1Cc1ccc(C#N)cc1` is reported as 91% (CRK2 (Plasmodium falciparum, UniProt P61075); cell-free assay, competition with immobilised ligand; 1 µM).

For quick reference, copied from above (block 3):
`YIERTSVMPQYQITY` has a fold enrichment of 2.75.
With `QQYFLPMYQIQFRNM` the fold enrichment was 3.92.
